# Measured values collected from several papers.
# Every numbered part comes from another study and shows a few of its results, in no order.

# Block 1 — technique: protein-binding microarray; molecule type: double-stranded DNA, one strand shown; matrix: in vitro; tested at: not given; direction: higher = stronger binding
# Target: Protein C-ets-1 (ETS1, Homo sapiens, UniProt P14921, residues 1-441, full length assumed)
# Notes: k-mer, scored over probes, only values ≥0.25
# Construct (chain): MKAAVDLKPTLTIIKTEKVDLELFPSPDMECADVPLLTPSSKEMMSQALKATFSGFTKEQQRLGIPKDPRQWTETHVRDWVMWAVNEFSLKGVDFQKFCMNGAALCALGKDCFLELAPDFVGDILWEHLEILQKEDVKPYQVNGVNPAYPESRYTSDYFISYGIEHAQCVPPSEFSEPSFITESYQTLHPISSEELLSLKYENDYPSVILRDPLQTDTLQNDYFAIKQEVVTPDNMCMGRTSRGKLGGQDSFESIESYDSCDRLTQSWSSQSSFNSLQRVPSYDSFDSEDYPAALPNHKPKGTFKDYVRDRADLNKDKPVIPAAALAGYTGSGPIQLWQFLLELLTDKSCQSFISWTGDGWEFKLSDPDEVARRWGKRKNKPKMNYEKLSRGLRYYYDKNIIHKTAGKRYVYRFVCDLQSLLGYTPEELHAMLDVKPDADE
Sequence,E-score
CTTCCGTC,0.461
ACCCCGCC,0.311
CCCATCCG,0.429
GGCGGACA,0.332
CGGAAAAG,0.41
GACCGGTA,0.264
CCCGGACG,0.398
TCCGCTAA,0.266
ATACTCCG,0.27
GTAGGAGA,0.255
TCGTGGAA,0.262
GAACGGAA,0.458
ACTTCCGG,0.499
TCCGACAA,0.28
CTAAAGGA,0.319
CCCCCGGC,0.274
ACGGACAT,0.263

# Block 2 — technique: RNA Bind-n-Seq; molecule type: RNA; matrix: in vitro; tested at: 365 nM; relative to: no-protein control; direction: higher = stronger binding
# Target: RNA binding protein fox-1 homolog 2, RRM domain, GST-SBP tag (RBFOX2, Homo sapiens, UniProt O43251-10, residues 100-194)
# Notes: natural RNA segment, single round, ends assumed
# Constant ends, left off below: GGGAGUUCUACAGUCCGACGAUC … UGGAAUUCUCGGGUGCCAA
# Construct (chain): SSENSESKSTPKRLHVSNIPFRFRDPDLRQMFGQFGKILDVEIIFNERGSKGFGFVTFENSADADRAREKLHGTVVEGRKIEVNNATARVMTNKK
Sequence,RBNS enrichment (R)
CAGCUGGGCGUCCAAGGGGGUCCUGGAACAGCAGACAUCUGACUGUCUGGUCCCUGGCUCCUCUGACCAGCCCUUAGGCUAUGUGGUGGCUUCUCUCUGCCUCAGUGUCC,0.152
GGCAGAUUCCUGCUUGGCAUAAGCAUUUGUAGGUCUUCAUUCAAUUCUGUUAGAUUUUUUUAUUGGACUUACAUAAUGCCGUUUAUUUGAGAAACACAUAACAUCUCUCC,0.321
UUUAAGAUUUGUGGAUUUUAUUUUUAUUAAGAACAUAGAUAUAUAAAGUACUGUAGUUUACAGGUAGGCCUUGAAAUAUCUUUUUUAGGAUCUGUUAGGAAUAAGAUUGA,0.434
AAAUAUGAGAACAAGGUACAUGCAUUAUGUGUCACAUUACUGGGCAAACUGUUCAAGUAUUUUUUUUUAAACCUCCCUGUAUAGAAAAAAAUCAUUAAGGAUGUAAAAGC,0.726
UACACCAAUUCUUUCUACUAAAUUGAGCUCUAUUUGAAGUUCUUUGGAAUCUGUGGUGAAAAAUAAUUUUCUGAUUUCCAAAUACAUUAAGAGCAUUAAAUGAAUAUUAA,0.977
GGCACCCGCUGGGCGCGGGCAGCAGGGAAGAGGGAGCAAGGCAUUGUCCACAGACUGCUGGGGUCACUUCUUUGCCCACGGGCUCCCUGCUCCCCCAGUUUUUUUUCUCU,0.372
GACUUAAAAAAUCAAAUCCCCCGACAUACGUUUUUUUUAAUCUGUGCCAAAAAUGUGUUUUCAGAGGAAAUCUUAUUUUCAUAUUCAGACUUUGUAUUGCCCACUCAUUU,0.624
GUGGUUGGGGCAUUUUUAAAUGGCUGGCUACACUUGUUUUCCCUCAUGAUAAUUUGUCAUAACUCAGUAGCAUGACCUGCCCCUAGAAGGUAGUUAAAAUUUGUAAAUGC,1.05
UGCUCUGUGGAAGGAGGCGGGAAGGGAACGUUGGCCAAGUCAGUUACUGAGAUGAAGAUCGCCCAGCUGCCAGGACCACCCCAGGACAAGUUAGAGCACUGUUUAGCUCC,0.555
UCCCGAGAAGGUGGCUUUGGCUGAAGCCUAUUCCACAGCUCCUUGUUUUUUGAGAGAGACUGAGAGAACCAUAAUCCUUGCCUGCUGAACCCAGCCUGGGCCUGGAUGCU,0.32
AUUUUUUGAUACCAACACUGAACAUUCAUCAGGGAACUUUCCUGAAGUUCAGCUCAAGACUACCCUACCUGCUGUGUUUGUGAGAAGAGUAGGAUCACACACACAGGUGC,0.4
AUUGCCCAAAAAACUGAAGAGUCAGCAGAUGCCAGGAGGAAAGCUGAGCUGCUACAAAAUGAAGCAAAAACACUCUUGGCUCAAGCUAACAGCAAGCUCCAGCUGUUGGA,0.416

# Block 3 — technique: universal PBM; molecule type: double-stranded DNA, one strand shown; matrix: in vitro; tested at: 600 nM; direction: higher = stronger binding
# Target: Sal-like protein 4, full length isoform A (SALL4, Homo sapiens, UniProt Q9UJQ4, residues 1-1053)
# Sequence of UniProt Q9UJQ4 (whole entry, looked up): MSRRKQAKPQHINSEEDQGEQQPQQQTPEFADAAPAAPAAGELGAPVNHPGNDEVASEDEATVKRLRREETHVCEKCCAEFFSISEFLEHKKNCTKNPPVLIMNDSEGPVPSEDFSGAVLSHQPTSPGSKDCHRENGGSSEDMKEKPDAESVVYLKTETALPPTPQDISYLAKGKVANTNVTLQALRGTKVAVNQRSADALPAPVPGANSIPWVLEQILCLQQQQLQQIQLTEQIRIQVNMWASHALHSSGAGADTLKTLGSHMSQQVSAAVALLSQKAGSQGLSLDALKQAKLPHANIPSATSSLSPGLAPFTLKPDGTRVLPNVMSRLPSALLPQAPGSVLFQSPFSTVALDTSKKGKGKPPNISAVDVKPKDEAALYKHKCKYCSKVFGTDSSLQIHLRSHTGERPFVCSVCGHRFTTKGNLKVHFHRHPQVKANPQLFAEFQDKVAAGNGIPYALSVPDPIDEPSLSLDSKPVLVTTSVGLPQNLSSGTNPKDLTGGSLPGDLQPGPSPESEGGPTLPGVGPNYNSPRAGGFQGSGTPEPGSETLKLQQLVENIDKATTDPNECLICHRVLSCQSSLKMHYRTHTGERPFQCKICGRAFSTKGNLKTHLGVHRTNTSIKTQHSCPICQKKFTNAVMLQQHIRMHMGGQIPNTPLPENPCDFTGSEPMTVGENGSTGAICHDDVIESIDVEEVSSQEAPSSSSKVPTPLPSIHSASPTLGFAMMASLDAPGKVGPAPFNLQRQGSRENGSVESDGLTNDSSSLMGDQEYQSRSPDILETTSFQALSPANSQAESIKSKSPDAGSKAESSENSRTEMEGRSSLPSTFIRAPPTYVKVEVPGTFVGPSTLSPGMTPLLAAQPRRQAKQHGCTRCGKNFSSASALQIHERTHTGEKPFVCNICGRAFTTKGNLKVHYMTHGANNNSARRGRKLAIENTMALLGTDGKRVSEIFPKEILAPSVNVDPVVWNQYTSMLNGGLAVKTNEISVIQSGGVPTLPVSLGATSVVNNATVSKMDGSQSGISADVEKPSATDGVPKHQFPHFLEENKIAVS
# Notes: 8-mer, flanks averaged, mean of replicates
Sequence,E-score
ACGAGGCC,-0.274
TCAGAACA,0.1
ACAGGCGT,-0.18
AATTCCCC,0.0823
AGAGACAT,0.136
ATACAACA,0.285
AAGGTAGG,0.0408
ACCAATTA,0.292
AGACAAGG,-0.236
AAAATATG,0.435
AATGCACG,0.075
GCTCAATA,0.111
CTTTATGC,0.148
AAGTTGGC,0.00245
AATGACAC,0.134
AGGTACAC,-0.114
ATAAACGC,0.246
AATAGAAG,0.151
AATGGGCA,0.0171
CATACCCG,-0.214

# Block 4 — technique: RNA Bind-n-Seq; molecule type: RNA; matrix: in vitro; tested at: not given; relative to: input RNA pool; direction: higher = stronger binding
# Target: RING finger protein unkempt homolog, zinc fingers 1-6, GST-SBP tag (UNK, Homo sapiens, UniProt Q9C0B0, residues 30-357)
# Sequence of UniProt Q9C0B0 (30-357, looked up): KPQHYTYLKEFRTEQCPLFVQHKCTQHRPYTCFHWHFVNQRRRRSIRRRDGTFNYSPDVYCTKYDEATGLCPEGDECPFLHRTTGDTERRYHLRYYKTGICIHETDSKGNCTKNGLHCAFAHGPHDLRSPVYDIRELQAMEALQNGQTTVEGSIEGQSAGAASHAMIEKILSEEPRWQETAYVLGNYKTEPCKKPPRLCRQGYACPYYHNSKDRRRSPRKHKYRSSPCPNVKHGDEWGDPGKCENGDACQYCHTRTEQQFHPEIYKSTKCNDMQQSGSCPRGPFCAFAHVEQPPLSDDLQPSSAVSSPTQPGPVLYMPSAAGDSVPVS
# Notes: RNA with constant flanks, human-mouse chimeric sites, ends assumed
# Constant ends, left off below: GGGAGUUCUACAGUCCGACGAUC … CAACAGAGGAUUGAGCAUCA
Sequence,bound/input enrichment [ratio]
GCACUUCUCAAAUACUGGCCAAAGACUCACAGUCCAAAAGAAGUAAUGUUCUUAAAUGAAUUAGAAGAAAUUUUAGAUGUCAUUGAACCAUCAGAAUUUGUGAAGAUCAUGGAGCCUCUU,0.22
ACCAUUUUCGCGGUUCAAGGUUUUGUGUGUAUUUACUUACGGUAUUAAAUUAUUAUUCUGCUUAGCUUAUAAUAAGGAUAAUUGCAUUUAAAGAGGUUACUGAAUGUUACUCUGAAACUU,0.434
AAAGCCCAAGUAUUUUGAAAAAACUCGAACAGAUUUGACAAGGGUAGCCAGCUUGGAGUCUAGCAACUUUGCCAAUGGUUUACCAAUCUGGGGGCUUGUUUUUCUUUUCUUCUUUCAAAU,0.346
GUGACUGGUGUUAAGAUUUCCCCUCAGCAAAGAAGUGCAGUAGUCACCAUAAUUCCAUCUGUGGUGAGUGCCAGUCAGAUAAAAGAGCUGGUUCCAGACCUCAGUUUAGACAUGGGAACU,0.253
GCAGGAUCUUCUAAGUACCAGUGGGACAUUAUGAAAUCCCUUGGGCUCUCUGAUGACGACAUAGUGAAGUUUUCUGAAGCAGAACAUUGGCUUGAUUAUUUCCCACCACUGGCUAUUCAG,0.162
CCCUCCCCGGGCCACCCACCCCUCCCGGCUCCCCGCCGAGAUCCAGGUUUCUUCUUAUUUCAUAGCAAAUAAGAAAAAUGUUCUACGCACAUUUUGUUCUCAGUAAAAGAGGGCCUCUGG,0.68
CAGUCCCCGUGUCCCAGUGCAGGACGAUGUGAACAAAAACUCAAAGCGGACCCUCUAUUGUAGUUCUUGAUUCUCGAAAUGUGCUAUUAUUGUUUGUAAAAAAGGAAAAAAGAAAAGAGA,0.239
AGAUUCCCUCUCUUAAAACCUCCUCCGAAGUUGGAGUCUCUUACAGAUGCCUCAUCCCCUGUUAGUAUUUUAGUUUGGACCACCCAGCCUUGGACAAUUCCCGCCAACCAGGCAAUUUGC,2.17
GUAUACGGUUAUCGAGGAAAGGACUGUAGAGCGAAUGUUUACCUUCUUCCCACAGGGGAGAUAGUUUAUUUUAUCGCCUCAGUGGUAGUACUAUUUAAUUAUGAGGAGAGGACUCAGCGA,3.85
GGUGGGGUGGUCAUUGCGCCAAUUGAGGCUGAUUUUCAUGAGUCGCCUUCAAAACUCUCGUGUAGGGUUGACAAUGUAAGGGGUGGGGGGAUCCAGCUUAUUCUUUUAUUUUCAAGUCCA,0.736
AAAGAGUGGAUAGAGUGUGCACACGGGAUCGGUUAUACUCGGGCAGAAAAGGAGUGCAAGAUAGAGUUCGAUGACUUCGAAGAGUGCUUGCUUCGGUACAAAACGAUGAGGCGAAUGCAU,0.325

# Block 5 — technique: protein binding microarray; molecule type: double-stranded DNA, one strand shown; matrix: in vitro; tested at: not given; relative to: not given; direction: higher = stronger binding
# Target: Histone acetyltransferase KAT6A, winged helix 1, GST fusion (KAT6A, Homo sapiens, UniProt Q92794, residues 1-85)
# Notes: 8-mer, flanks averaged, mean of 2 arrays, mostly near background
# Construct (chain): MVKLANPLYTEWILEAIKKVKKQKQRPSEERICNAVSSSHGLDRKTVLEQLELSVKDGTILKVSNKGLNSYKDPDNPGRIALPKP
Sequence,E-score
AAAGCTGT,0.0127
CGCTAGTA,0.25
ATCGTTGC,-0.139
GTAGACTA,-0.0652
CGAACGGC,0.327
GAAACGCA,0.0595
AGAAACCG,0.0938
CAGTACTC,-0.0714
GGGTCACC,0.068
ACTATCCA,-0.0956
GAAGGAGA,-0.076
GAGCTTCA,-0.102
CAGATGTA,0.0133
ATGTGTTG,-0.124
AAACACTC,-0.049
TTCATGAA,-0.199
GGGTGTAA,-0.0345
CTAGTCAG,-0.265
AAATTAGT,-0.0636
ACTCCGAT,0.0444
CTCTATTC,0.0508
CAAGATGA,-0.241
AGTACTGA,-0.00553
GCTGACCA,-0.141
AGTGTTCA,-0.092

# Repeated from above (block 1):
Sequence,E-score
GAACGGAA,0.458
ACTTCCGG,0.499
ACGGACAT,0.263
TCGTGGAA,0.262
CCCCCGGC,0.274
TCCGCTAA,0.266
CTTCCGTC,0.461
CCCATCCG,0.429
CCCGGACG,0.398
